Measurements of several laboratories.
Numbered parts are unrelated; each lists some results of a single study. Substitutions count along the parent as printed.

Sample 1 — method: universal PBM; form: double-stranded DNA, one strand shown; medium: in vitro; concentration: not given; direction: higher = stronger binding; endpoint: E-score
Target: Sal-like protein 4, full length isoform B (SALL4, Homo sapiens, UniProt Q9UJQ4-2, residues 1-616)
Setting: 8-mer, flanks averaged, mean of replicates
Residues (chain): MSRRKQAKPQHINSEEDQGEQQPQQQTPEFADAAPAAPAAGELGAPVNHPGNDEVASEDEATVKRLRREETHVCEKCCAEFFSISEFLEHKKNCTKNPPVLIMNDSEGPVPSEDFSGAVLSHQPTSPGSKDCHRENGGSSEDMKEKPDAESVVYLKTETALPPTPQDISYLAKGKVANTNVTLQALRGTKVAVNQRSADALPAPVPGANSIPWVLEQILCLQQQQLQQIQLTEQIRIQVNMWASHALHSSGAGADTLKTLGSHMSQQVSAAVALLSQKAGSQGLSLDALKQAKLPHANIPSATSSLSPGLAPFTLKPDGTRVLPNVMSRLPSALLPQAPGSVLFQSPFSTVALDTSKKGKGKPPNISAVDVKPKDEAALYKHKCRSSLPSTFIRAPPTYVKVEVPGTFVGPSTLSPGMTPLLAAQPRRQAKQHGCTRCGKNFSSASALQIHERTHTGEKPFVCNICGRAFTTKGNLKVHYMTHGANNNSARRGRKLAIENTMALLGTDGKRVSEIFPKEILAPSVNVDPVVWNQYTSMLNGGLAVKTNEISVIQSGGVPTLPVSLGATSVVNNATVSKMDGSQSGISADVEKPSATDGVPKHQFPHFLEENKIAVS
ATAGAGCC: -0.0952
CGCGTCCG: -0.315
GTAATCAA: 0.207
CGATATTA: 0.361
CGCGACTC: -0.207
CGGGCGAC: -0.361
AGTAGCAC: -0.154
CATTAGGC: -0.102
AAAGGCCC: -0.168
CTATGCAA: 0.116
AAGCAAGA: 0.109
ATCTCGCG: -0.00133
GACGTAGC: 0.00755
ACGACTAG: 0.0467
GCGCTAAA: -0.0373
GTAGTCGA: -0.0113
CTAGGCGA: -0.16
CCTACCGA: 0.00228
ACCAACGG: -0.274
ATAATAAC: 0.437
GCCTATAC: 0.041
TGAAGTAA: 0.116
AAGCGATA: 0.0301
CTGACTCA: -0.0856
AAGGTATT: 0.194

Sample 2 — method: RNA Bind-n-Seq; form: RNA; medium: in vitro; concentration: 365 nM; relative to: no-protein control; direction: higher = stronger binding; endpoint: RBNS enrichment (R)
Target: RNA binding protein fox-1 homolog 2, RRM domain, GST-SBP tag (RBFOX2, Homo sapiens, UniProt O43251-10, residues 100-194)
Setting: natural RNA segment, single round, ends assumed
All sequences stand within: GGGAGUUCUACAGUCCGACGAUC … UGGAAUUCUCGGGUGCCAA
Construct (chain): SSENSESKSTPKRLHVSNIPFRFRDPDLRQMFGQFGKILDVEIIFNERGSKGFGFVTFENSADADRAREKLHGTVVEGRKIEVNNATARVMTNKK
AGAAAUGCUUUCAGUUACCAAAGUUAUAACGAUAUAUUUAGGAAAAGCUACAAAUAACACUUACUUUGAAUCCUGCUGUCAAAUGUCUGCAUCAAGAUAGCACCCCUUUG: 1.06
GAUCUAUUUAUAAUGAAUUCACAAUUUAUGCCUAUAAAUUUCAGAUGAUUUAAAAUUUUAAACCUGUUACAUUGAAAAACAUUGAAGUUCGUCUUGAAGAAAGCAUUAAG: 2.1
GGGCCCCCCAGGUGCUAAUGGCGAACAGUGUCUGAUCAUUGAAACACAGCACAGUUUCCUCCCUGAGCCCCAGCCGUGGGGAACAUCUGGAGUCAACAGAGUCACUGGGA: 0.193
CUGCCACCAUUUUCAUUGCUUUCCCCAGCAGCAUGAUGGGAACCCAAGCUGAGGGAUACAGGUCCUGAUUUGGUAGGAAUAUUAUUCCCAAGAAAUACCCGCUCCUCACC: 16.7
UCUCUUGUGAGGUAUCUUCAUUUAUGCACUGUCCAAAAAUAGCCAUGUGUAAGAGUCUUUCUGUAUGACGAACUACAUGGAAAAGACUUCUGUGGACAUAAUUCUGACCG: 0.432
CAUAAGGAGGGAACCCAGUACACAAUUAUUUUUUAUUUGGGAAUCAGGGAAUAGUUCCCAAAUAUACAGGAUUUAUUGAUAAGAUUUUUUUUCUUCCCUUCAUAUAUCCA: 0.737
UUCCACUAGAAGGAGUCACCCAGGCAUUUAGUGAAUGAUAAUCCUAGAAGUUGAGUCUGAGUACAUCAGAGUUUGGCAUUAUUUGCAACAUCCCAGGAAUGAGCUAUAAG: 0.932
GGCUUUCUAAAAGUAUGAAACAUCCUUCAACUGGGCUCUCUUGUUAAUAGGACAUCAUAUGGUAAUAGACUGGUUUGACUAUAUUGUUAGCUGCCACAGUAAGCAGGUCA: 0.271
CCAGACUGGUACUUGAGUCCUUCUCAUGGGUGGGGUGAUUGCCUCUUCUCAUCAGGAGCCAGGAGAGAGGGGGACAGAUAGGAGGUGGCCCAUAGGAGCAGUCCCGCUGC: 0.443
CUGGAUGUAGAUAUUCUACAAGGAAGUAGAAACUUUUAAUACGAAGUAAUGAUUCCUCUAAAGGGAAAGGAAGUUUUAAGAGGGAGGCUUGGACAAUCUUAGUAUUUACA: 1.06
AGGGUCAUUGUCCCCACAAUGUGCCAGUCGACUAUUUGCACUUACCUUGUCCUAUAUAUCCGUACGGAGGUGUGCAAUUCCUCGUGUCAGUAGCCUUGUGACACUGAACC: 0.314
AUCUGGUAUAGAGACCUGCAUUUUUACCUAACCUUCUAGACUCCUGAAAGGGAGUUAAAUGAAUUCACAUGAAGGGGUCGCCUGAGUCCCGCAGUUCCCCGCUCUGUACU: 0.443

Sample 3 — method: protein-binding microarray; form: double-stranded DNA, one strand shown; medium: in vitro; concentration: 0.8 µM; setting: whole 60-bp probe, no competitor; direction: higher = stronger binding; endpoint: fluorescence intensity; all sequences stand within: … GTCTTGATTCGCTTGACGCTGCTG
Target: Centromere-binding protein 1, full length, N-terminal tag (CBF1, Saccharomyces cerevisiae, UniProt P17106, residues 1-351)
UniProt P17106, sequence (whole entry, looked up): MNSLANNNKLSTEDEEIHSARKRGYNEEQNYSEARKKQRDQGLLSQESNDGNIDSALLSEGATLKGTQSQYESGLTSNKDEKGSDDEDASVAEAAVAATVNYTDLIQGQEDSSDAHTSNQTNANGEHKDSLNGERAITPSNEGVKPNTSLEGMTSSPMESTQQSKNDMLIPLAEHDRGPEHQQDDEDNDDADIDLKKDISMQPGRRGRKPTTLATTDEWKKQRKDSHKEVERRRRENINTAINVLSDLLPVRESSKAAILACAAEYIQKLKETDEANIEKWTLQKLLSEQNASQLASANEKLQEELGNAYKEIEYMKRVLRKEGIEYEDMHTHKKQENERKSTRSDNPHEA
GAATCTTGTAGTTGCCACGTGAAACCTGACAACTAG: 3170 a.u.
TGTACGAAGCTATGTCACGTTCATATAGTAGTTAGG: 1530 a.u.
TGTACGAAGCTATGACATCAGACTATAGTAGTTAGG: 561 a.u.
CTAGTCATAACGCGTGGTGTTGTGGTTTTGCTTTTC: 538 a.u.
CTAAACAATGCGCTATACGTGCGCAGTAGCTCATTC: 501 a.u.
CTAACGATATTTCTGATCGTGATTAAACTGGTATTC: 698 a.u.
TGTACGAAGCTATAAAACCTCACTATAGTAGTTAGG: 509 a.u.
TGTACGAAGCTATTGCACGTGACTATAGTAGTTAGG: 18500 a.u.
CTACCATAGTAAAGTGCTGATGTCTTCTGAGTTTTC: 531 a.u.
CTACATACATGCACGCGCATGACAGTGACTGGCTTC: 1050 a.u.

Sample 4 — method: protein binding microarray; form: double-stranded DNA, one strand shown; medium: in vitro; concentration: not given; relative to: not given; direction: higher = stronger binding; endpoint: E-score
Target: Histone acetyltransferase KAT6A, winged helix 1, GST fusion (KAT6A, Homo sapiens, UniProt Q92794, residues 1-85)
Setting: 8-mer, flanks averaged, mean of 2 arrays, mostly near background
Residues (chain): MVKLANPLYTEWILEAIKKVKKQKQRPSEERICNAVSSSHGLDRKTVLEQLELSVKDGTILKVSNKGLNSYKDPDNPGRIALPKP
ACTTCCCG: 0.115
ATCTTTCG: -0.146
CCAGCTAG: -0.3
GATAGTAC: 0.0329
CATGCGTA: 0.204
CGAACGCA: 0.135
CGGTGATC: 0.0275
AAGGTGCG: 0.171
CAGTGCTC: -0.0955
CAAGTTAA: -0.2
ATCTAAAG: -0.127
CTTGGCCA: -0.307
GCCACTAA: -0.136
GATTACGC: 0.171
AAAAAGCT: 0.0284
AATCCTTC: -0.135
CTGAAGCC: 0.0673
CTACGAAA: -0.228
AAATACGA: -0.14
CCTGCGCG: 0.359
CACTGATA: -0.17

Sample 5 — method: RNA Bind-n-Seq; form: RNA; medium: in vitro; concentration: 1 µM; setting: whole 134-nt RNA, ends assumed; with: 150 mM KCl; relative to: input library; direction: higher = stronger binding; endpoint: log2 enrichment
Target: Ras GTPase-activating protein-binding protein 1, RRM domain (G3BP1, Homo sapiens, UniProt Q13283)
UniProt Q13283, sequence (whole entry, looked up): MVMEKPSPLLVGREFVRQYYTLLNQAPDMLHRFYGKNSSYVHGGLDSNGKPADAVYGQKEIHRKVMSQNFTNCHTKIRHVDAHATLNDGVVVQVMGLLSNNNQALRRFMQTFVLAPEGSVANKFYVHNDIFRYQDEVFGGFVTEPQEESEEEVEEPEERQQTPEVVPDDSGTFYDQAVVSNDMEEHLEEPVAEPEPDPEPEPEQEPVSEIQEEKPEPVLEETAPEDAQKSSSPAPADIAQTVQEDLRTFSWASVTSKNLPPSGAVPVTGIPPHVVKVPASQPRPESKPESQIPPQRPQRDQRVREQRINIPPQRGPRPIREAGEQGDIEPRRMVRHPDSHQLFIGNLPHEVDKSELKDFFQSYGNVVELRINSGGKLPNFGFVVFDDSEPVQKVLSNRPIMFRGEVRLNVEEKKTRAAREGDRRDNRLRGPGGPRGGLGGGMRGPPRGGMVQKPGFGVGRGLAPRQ
All sequences stand within: GGGAGUUCUACAGUCCGACGAUC … UGGAAUUCUCGGGUGUCAAGG
CCUCAAGUCCUGUGCUACACAUCGUAUGUACCGAAUCGGGCGGGCGGGGCGGAAAGUAUUAUGUUACGCCGUUCGGAUCUGCACUUCCAG: -0.0668
UCCUGUGCUACACAUCGUAUGUACCGAAUCGGGAAAAAAGGGAAAAAAGGAAAAAAGGGGAAAGUAUUAUGUUACGCCGUUCGGAUCUGC: 0.0968
UGUGUGACUUCCUUGGAGAGAAGAUUGCAUCUGUUUUGGGUAUCAGCACCCCAAAGUACCAAUAUGCCAUUGAUGAAUAUUAUCGGAUGA: -0.0941
GUCCUGUGCUACACAUCGUAUGUACCGAAUCGGGUUUUUGGGGUUUUUGGGUUUUUGGAAAGUAUUAUGUUACGCCGUUCGGAUCUGCAC: -0.17
UCCUGUGCUACACAUCGUAUGUACCGAAUCGGGAAAAAGGGGAAAAAGGGGAAAAAGGGAAAGUAUUAUGUUACGCCGUUCGGAUCUGCA: 0.0741
UAUUGGACACAGUGCCCCGCUGAACAGCAGCUGUUCCCAGCGCCAGAGGACCCCACAGCCACAGUAGGAGCUUUGCGACCCCUACGCAAC: -0.387
UCCUGUGCUACACAUCGUAUGUACCGAAUCGGGUUUUUGGGUUUUUGGGAAAAAAAGGGAAAGUAUUAUGUUACGCCGUUCGGAUCUGCA: -0.0365
CACAGACAACACGCACCCACACAGACACUGAGGGAAGGGGUUGGGAUGGGGACAGGGUGCACAGCAGGGCGGGGUAGGACCCCAGCCCCU: 0.0701
UGGCAGGAAAGAGUUCCUAGAGAGAGAAGACAAAGACAGUCUGUGUUGCAAAAGAAGCCCAAGGCUGAAGAUUUAAGAACUGAAUGUGCA: 0.000467

Sample 6 — target: CCNB2, cyclin fold, Cln2 fusion (human); method: yeast growth competition, sequencing; medium: yeast; setting: strong parent motif; relative to: not given; direction: higher = stronger binding; endpoint: normalised enrichment score
Parent: MICAL3 docking peptide (human); LQLRRQLSFSEDS; partner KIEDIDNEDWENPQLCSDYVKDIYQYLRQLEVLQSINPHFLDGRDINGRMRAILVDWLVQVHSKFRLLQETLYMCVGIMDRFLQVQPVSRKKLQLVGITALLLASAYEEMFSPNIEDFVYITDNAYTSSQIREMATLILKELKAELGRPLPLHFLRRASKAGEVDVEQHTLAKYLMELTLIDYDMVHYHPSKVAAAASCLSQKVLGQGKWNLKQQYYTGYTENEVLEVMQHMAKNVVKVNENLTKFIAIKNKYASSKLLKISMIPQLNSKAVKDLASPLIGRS
S8H: 1.82
S10D: 2.87
S10I: 1.04
L3Y: 0.485
E11I: 0.822
E11L: 2.18
S10H: 1.46
L3T: 1.41
D12S: 2.67
D12F: 2.58
S10V: 1.03
F9K: 0.471
L7Y: 0.263
L3P: 1.28
S10Q: 1.36
L7D: -0.403
R4Q: 1.15
D12P: 2.9
S10E: 3.14
S8G: 0.328
D12E: 4.05
R5E: -0.139

Sample 7 — method: DHFR PCA, deep sequencing; medium: yeast; with: (+)-ABA 2500 µM; relative to: wild-type fitted maximum; direction: higher = stronger binding; endpoint: relative binding score
Target: ABI1, truncated, D143A, DHFR fusion (Arabidopsis thaliana)
Setting: methotrexate growth selection, single substitutions
Parent: PYL1, truncated, DHFR fusion (Arabidopsis thaliana); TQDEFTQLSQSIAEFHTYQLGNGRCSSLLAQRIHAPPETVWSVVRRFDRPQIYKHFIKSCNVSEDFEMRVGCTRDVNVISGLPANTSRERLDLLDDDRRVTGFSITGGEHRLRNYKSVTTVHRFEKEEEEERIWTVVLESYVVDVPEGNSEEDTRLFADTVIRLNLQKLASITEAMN; partner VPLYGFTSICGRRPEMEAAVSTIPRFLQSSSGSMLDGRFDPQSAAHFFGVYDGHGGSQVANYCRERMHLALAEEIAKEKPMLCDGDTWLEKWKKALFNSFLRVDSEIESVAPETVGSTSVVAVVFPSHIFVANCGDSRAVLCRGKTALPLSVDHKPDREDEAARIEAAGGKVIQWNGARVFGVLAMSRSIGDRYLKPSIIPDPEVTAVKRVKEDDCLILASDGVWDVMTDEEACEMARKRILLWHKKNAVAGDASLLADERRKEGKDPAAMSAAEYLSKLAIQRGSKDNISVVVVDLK
T135I: 48.3%
D97Q: 94%
G81M: 68%
L156Y: 96%
E38L: 83.6%
I133C: 108%
E151Y: 95%
T160M: 97.2%
A13K: 94.1%
D75N: 96.3%
